# Assay results gathered from unrelated publications.
# Lines come from different studies, so protocols differ. Numbers after ± are the reported error.
# BACE1: Beta-secretase 1 (BACE1, Homo sapiens, UniProt P56817)
# Sequence of UniProt P56817 (whole entry, looked up): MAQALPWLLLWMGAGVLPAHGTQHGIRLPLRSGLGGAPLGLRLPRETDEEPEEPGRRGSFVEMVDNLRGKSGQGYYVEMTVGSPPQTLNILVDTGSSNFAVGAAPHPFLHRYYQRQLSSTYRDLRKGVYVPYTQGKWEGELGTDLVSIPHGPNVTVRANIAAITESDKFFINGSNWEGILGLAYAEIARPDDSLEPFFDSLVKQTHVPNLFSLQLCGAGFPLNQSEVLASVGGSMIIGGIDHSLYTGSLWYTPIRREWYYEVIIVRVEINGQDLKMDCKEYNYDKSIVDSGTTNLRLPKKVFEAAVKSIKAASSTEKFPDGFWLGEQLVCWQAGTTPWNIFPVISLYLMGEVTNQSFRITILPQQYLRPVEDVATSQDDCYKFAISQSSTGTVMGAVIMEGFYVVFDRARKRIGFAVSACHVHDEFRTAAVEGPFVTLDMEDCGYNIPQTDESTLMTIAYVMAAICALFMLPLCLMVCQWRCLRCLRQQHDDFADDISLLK
# ENPP2: Autotaxin (ENPP2, Homo sapiens, UniProt Q13822)
# MAOB: Amine oxidase [flavin-containing] B (MAOB, Homo sapiens, UniProt P27338)
# Sequence of UniProt P21729 (whole entry, looked up): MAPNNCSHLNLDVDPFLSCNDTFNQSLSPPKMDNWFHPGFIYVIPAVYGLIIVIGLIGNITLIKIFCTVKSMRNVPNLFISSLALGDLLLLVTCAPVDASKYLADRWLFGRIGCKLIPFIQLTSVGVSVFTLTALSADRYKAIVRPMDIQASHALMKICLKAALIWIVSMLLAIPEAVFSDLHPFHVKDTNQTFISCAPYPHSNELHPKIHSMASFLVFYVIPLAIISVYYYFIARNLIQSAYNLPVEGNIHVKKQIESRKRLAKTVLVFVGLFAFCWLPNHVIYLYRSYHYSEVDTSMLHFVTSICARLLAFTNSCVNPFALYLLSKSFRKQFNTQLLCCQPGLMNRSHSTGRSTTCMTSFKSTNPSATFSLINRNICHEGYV
# Sequence of UniProt P0A725 (whole entry, looked up): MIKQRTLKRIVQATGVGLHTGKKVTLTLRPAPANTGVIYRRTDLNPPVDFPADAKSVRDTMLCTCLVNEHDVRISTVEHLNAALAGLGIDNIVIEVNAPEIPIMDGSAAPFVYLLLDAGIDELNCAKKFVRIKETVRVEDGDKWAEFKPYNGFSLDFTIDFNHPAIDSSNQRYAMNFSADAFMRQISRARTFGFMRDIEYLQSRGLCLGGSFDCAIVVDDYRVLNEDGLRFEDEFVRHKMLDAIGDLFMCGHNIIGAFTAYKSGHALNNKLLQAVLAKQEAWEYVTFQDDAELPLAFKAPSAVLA
Compound,tested on,assay,test system,conditions,how to read,quantity,result
O=C(/C=C/c1ccc(C(F)(F)F)cc1)c1ccc(N2CCNCC2)cc1,BACE1,"enzyme activity, inhibitor, fluorescence",,10 µM,,remaining activity,52.2%
CCCCCCCCCCCCCCCc1ccc(C(O)P(=O)(O)O)cc1 (racemic),ENPP2,inhibitor,,"10 µM, 2 h, added: FS-3 1 µM",relative to: control,remaining activity,9.2%
CCCNC(=O)[C@H](CC(C)C)NC(=O)[C@H](Cc1c[nH]cn1)NC(=O)CNC(=O)[C@@H](NC(=O)[C@H](C)NC(=O)[C@H](Cc1c[nH]c2ccccc12)NC(=O)[C@H](CCC(N)=O)NC(=O)[C@@H](Cc1ccccc1)NC(=O)CCCCCNC(=O)CN1CCN(CC(=O)O)CCN(CC(=O)O)CCN(CC(=O)O)CC1)C(C)C [indium-111 labelled],"Gastrin-releasing peptide receptor (Mus musculus, UniProt P21729)",biodistribution,"CF-1 mice, kidneys","intravenous, 1 h, unblocked",,tissue uptake,1.54 ± 0.16 %ID/g
O=C(/C=C/c1cccc(Br)c1)c1cc2ccccc2oc1=O,BACE1,"enzyme activity, inhibitor, fluorescence",,10 µM,,remaining activity,92.8%
CCCCCCCCCCCCCCCc1ccc(C(Br)P(=O)(O)O)cc1 (racemic),ENPP2,inhibitor,,"10 µM, 2 h, added: FS-3 1 µM",relative to: control,remaining activity,60.1%
COc1ccc(/C=C/C(=O)c2ccc(N3CCNCC3)cc2)cc1,BACE1,"enzyme activity, inhibitor, fluorescence",,10 µM,,remaining activity,28.9%
C[C@@](O)(C(F)F)[C@H](NC(=O)c1ccc(C#CC#CC2CC2)cc1)C(=O)NO,"UDP-3-O-acyl-N-acetylglucosamine deacetylase (Escherichia coli K-12, UniProt P0A725)","target binding in plasma, rapid equilibrium dialysis",mouse plasma,"10 µM, added: LpxC 9 µM in buffer",,buffer-to-plasma concentration ratio,1.4 ± 0.1
CCCC[C@H](NC(=O)CNC(=O)CNC(=O)c1ccc(NN)nc1)C(=O)N[C@H]1CC(=O)NCCCC[C@@H](C(N)=O)NC(=O)[C@H](Cc2c[nH]c3ccccc23)NC(=O)[C@H](CCCNC(=N)N)NC(=O)[C@@H](Cc2ccccc2)NC(=O)[C@H](Cc2c[nH]cn2)NC1=O [technetium-99m labelled],,,"C57 mouse, B16/F1 melanoma, pancreas","2 h, added: L-lysine 12 mg",,uptake,0.13 ± 0.04 %ID/g
O=C(/C=C/c1ccc(Br)cc1)c1ccc(N2CCNCC2)cc1,BACE1,"enzyme activity, inhibitor, fluorescence",,10 µM,,remaining activity,105%
O=C(/C=C/c1cccc(Cl)c1)c1cc2ccccc2oc1=O,BACE1,"enzyme activity, inhibitor, fluorescence",,10 µM,,remaining activity,91%
NC(=S)N/N=C/c1ccc(OCc2ccccc2)cc1,MAOB,"enzyme activity, inhibitor, absorbance",,10 µM,,remaining activity,0.91%
O=C(/C=C/c1cccc(F)c1)c1cc2ccccc2oc1=O,BACE1,"enzyme activity, inhibitor, fluorescence",,10 µM,,remaining activity,80.8%
CCC(=O)N(C)c1ccc(Cl)c(Cl)c1,Escherichia coli,Ames test,WP2 uvrA,"0.50 mg/plate, with rat liver S9",,revertants,44 ± 5 revertants/plate
NC(=O)N/N=C/c1ccccc1OCc1ccccc1,MAOB,"enzyme activity, inhibitor, absorbance",,10 µM,,remaining activity,92%
CCCCCCCCCCCCCCCc1ccc(C(Cl)P(=O)(O)O)cc1 (racemic),ENPP2,inhibitor,,"10 µM, 2 h, added: FS-3 1 µM",relative to: control,remaining activity,118%
CN[C@](C)(C[18F])C(=O)O,SK-OV-3 tumour model,,"host not given, muscle","2 h, tumour-bearing",,tracer uptake,1.2 %ID/g

# Repeated from above:
Compound,tested on,assay,test system,conditions,how to read,quantity,result
O=C(/C=C/c1cccc(Cl)c1)c1cc2ccccc2oc1=O,BACE1,"enzyme activity, inhibitor, fluorescence",,10 µM,,remaining activity,91%
NC(=S)N/N=C/c1ccc(OCc2ccccc2)cc1,MAOB,"enzyme activity, inhibitor, absorbance",,10 µM,,remaining activity,0.91%
